{"data": "Measurements pooled from the literature"}
{"SMILES": "CN1CCN(C2(CNC3CCN(c4cccc(-c5cc6cc(F)ccc6[nH]5)c4)CC3)CCC2)CC1", "tested on": "SK-OV-3", "quantity": "GI50", "value": "1.84 µM"}
{"SMILES": "O=S(=O)(c1cccc2c(Cl)cccc12)N1CCCNCC1", "tested on": "Plasmodium falciparum", "system": "D10", "quantity": "IC50", "value": "20 µM"}
{"SMILES": "COc1c(CCC[P+](c2ccccc2)(c2ccccc2)c2ccccc2)cc2c(c1OC)OCO2.[I-]", "tested on": "SR", "assay": "SRB", "quantity": "GI50", "value": "-5.97 log M"}
{"SMILES": "COc1c(C)c2c(c(O)c1C/C=C(\\C)CCC(=O)O)C(=O)OC2", "tested on": "uterus cancer cell lines", "assay": "cell proliferation", "conditions": "average over lines", "quantity": "IC50", "value": "0.708 µM"}
{"SMILES": "Nc1ncc(-c2nc(N3CCOCC3)nc(N3CCOCC3)n2)c(C(F)F)n1", "tested on": "A204", "conditions": "72 h", "quantity": "GI50", "value": "0.022 µM"}
{"SMILES": "C/C=C(/C)C(=O)O[C@H]1C(C)=C2[C@H]([C@@H]1OC(=O)CCCCCCC)[C@@](C)(OC(C)=O)C[C@H](OC(=O)CCC)[C@@]1(O)[C@H]2OC(=O)[C@@]1(C)O", "tested on": "HEK-293T", "assay": "RNA-seq GSEA, measured: Hallmark UV response down", "conditions": "500 nM, 6 h", "how to read": "direction not given", "quantity": "normalized enrichment score", "value": 1.01}
{"SMILES": "C[C@H]1c2cccc(O)c2C(=O)C2=C(O)[C@]3(O)C(=O)C(C(N)=O)=C(O)[C@@H](N(C)C)[C@@H]3[C@@H](O)[C@@H]21", "tested on": "Plasmodium falciparum", "system": "Dd2", "quantity": "IC50", "value": "5.01 µM"}
{"SMILES": "COc1ccc2c(c1)[nH]c1c(C)nccc12", "tested on": "DU-145", "assay": "bisulfite pyrosequencing, measured: RASSF1A promoter CpG site 10", "conditions": "10 µM, 16 h", "quantity": "CpG methylation", "value": "83.6%"}
{"SMILES": "Nc1ncnc2c1ncn2[C@@H]1O[C@@H]2COP(=O)(O)O[C@H]3[C@@H](O)[C@H](n4cnc5c(=O)[nH]cnc54)O[C@@H]3COP(=O)(O)O[C@H]2[C@H]1O", "tested on": "HFF-1", "assay": "RNA sequencing, measured: Reactome Innate Immune System", "conditions": "upregulated pathways", "how to read": "relative to: mock", "quantity": "fold enrichment", "value": 1.9}
{"SMILES": "COc1cc(CCC[P+](c2ccccc2)(c2ccccc2)c2ccccc2)c(OC)c2c1OCO2.[I-]", "tested on": "IGROV-1", "assay": "SRB", "quantity": "TGI", "value": "-4.93 log M"}
{"note": "A few entries again:"}
{"SMILES": "COc1c(CCC[P+](c2ccccc2)(c2ccccc2)c2ccccc2)cc2c(c1OC)OCO2.[I-]", "tested on": "SR", "assay": "SRB", "quantity": "GI50", "value": "-5.97 log M"}
